# Published values from different studies.
# Each line is one published result; not all experiments were run side by side. Several values in a cell are separate wells, animals, samples, runs or records. Numbers after ± are the reported error.
# Chain of UniProt P04062 (whole entry, unmodified, looked up): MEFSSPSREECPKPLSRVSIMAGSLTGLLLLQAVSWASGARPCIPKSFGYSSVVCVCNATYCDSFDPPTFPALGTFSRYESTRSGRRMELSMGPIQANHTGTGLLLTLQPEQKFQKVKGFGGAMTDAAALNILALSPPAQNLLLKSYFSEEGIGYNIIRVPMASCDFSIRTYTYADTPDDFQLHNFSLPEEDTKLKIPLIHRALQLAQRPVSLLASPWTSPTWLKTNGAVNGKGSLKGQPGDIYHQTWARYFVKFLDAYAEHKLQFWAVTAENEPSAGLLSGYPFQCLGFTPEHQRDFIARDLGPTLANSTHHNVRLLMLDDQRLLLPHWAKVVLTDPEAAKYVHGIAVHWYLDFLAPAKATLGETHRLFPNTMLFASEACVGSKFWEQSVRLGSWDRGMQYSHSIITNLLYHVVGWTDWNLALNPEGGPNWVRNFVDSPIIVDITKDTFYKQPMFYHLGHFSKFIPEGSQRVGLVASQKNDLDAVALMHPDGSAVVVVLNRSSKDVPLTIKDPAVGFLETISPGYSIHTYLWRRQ
SMILES,target or system,test,test system,setting,how to read,measurement,result
Cc1[nH]nc2c1N=C(c1ccccc1Cl)c1cnc(N3CCOCC3)cc1N2,,,mouse HCC1806 TNBC xenograft,"oral, 10 mg/kg once daily",,tumour growth inhibition,73.3%
CCCCCCCCCCCCCCCC(=O)OCC(CSC[C@H](N)C(=O)N[C@@H](CO)C(=O)N[C@@H](CCCCN)C(=O)N[C@@H](CCCCN)C(=O)N[C@@H](CCCCN)C(=O)N[C@@H](CCCCN)C(=O)NCCCCCC(=O)N[C@@H](CCCCN)C(=O)N[C@@H](CC(C)C)C(=O)N[C@H](C(=O)N[C@@H](Cc1ccccc1)C(=O)N[C@@H](Cc1ccccc1)C(=O)N[C@@H](Cc1ccc2ccccc2c1)C(=O)O)C(C)C)OC(=O)CCCCCCCCCCCCCCC (stereo partly drawn),,"OC antibody staining, measured: amyloid-beta oligomer","APP/PS1 transgenic mouse, cortex","intracortical injection, dose not given",,OC+ thioflavin S- area,1.06% and 3.92% and 2.81%
CC[C@H](C)NCC(SS(=O)(=O)O)c1ccccc1 (stereo partly drawn),,,"Swiss Webster mice, Schistosoma mansoni infected",100 mg/kg,relative to: vehicle control,spleen weight decrease,-8%
Cc1cc2cc(C(=O)N(Cc3ccc(C(F)(F)F)cn3)[C@H](C)c3ncccn3)ccc2nc1N,,"ELISA, measured: SDMA","mouse, HCT-116 MTAP-deleted xenograft, tumour","oral, 100 mg/kg once daily, 4 doses, 4 h after last dose",relative to: vehicle,inhibition,74%
COc1cc(N2CCN(C(=O)C3CCCN3)CC2)ccc1Nc1ncc(Cl)c(Nc2ccccc2P(C)(C)=O)n1 (stereo not drawn),,,"nude mice, NCI-H3122 xenograft","oral, 25 mg/kg every two days, day 9",,tumour volume,88.4 mm3 and 220 mm3 and 185 mm3 and 25.4 mm3 and 96.5 mm3
O=C(N[C@@H](Cc1ccc(OCCCCC2CCNCC2)cc1)C(=O)O)c1nc2ccccc2o1.O=C(O)C(F)(F)F,,,"human, platelet-rich plasma","1.5 µM, together with: thrombin",,clot retraction velocity,0.00476 min⁻¹ and 0.0102 min⁻¹ and 0.00492 min⁻¹
COC1OC(C)C(OS(=O)(=O)O)C(OC2OC(C)C(OS(=O)(=O)O)C(OC3OC(C)C(OS(=O)(=O)O)C(OC4OC(C)C(OS(=O)(=O)O)C(OS(=O)(=O)O)C4O)C3O)C2O)C1O (stereo not drawn),,,human plasma,128 µg/mL,relative to: control,APTT prolongation,1.1 fold
CN1CCC[C@]1(C)/C=C/S(=O)(=O)NC(=O)Nc1c2c(cc3c1CCC3)CCC2,,,"human, whole blood ex vivo","50 mg twice daily, day 14, 36 h, multiple ascending dose, together with: LPS and ATP",,IL-18 inhibition,112%
O=S(=O)(NCc1ccncc1)c1ccc(C2CCCCC2)cc1,,bulk RNA sequencing,"CK-p25 mice, female, microglia","intraperitoneal, 0.3 mg/kg daily for 2 weeks, 336 h, genes, PU.1 target, upregulated",,PU.1 target genes reduced,8.5%
CC(C)C[C@H](NC(=O)CNC(=O)[C@H](CCC(N)=O)NC(=O)[C@H](CC(C)C)NC(=O)[C@H](CC(C)C)NC(=O)[C@H](CCCNC(=N)N)NC(=O)[C@H](CCC(N)=O)NC(=O)[C@H](CC(C)C)NC(=O)[C@H](CCCNC(=N)N)NC(=O)[C@H](C)NC(=O)CNC(=O)[C@H](CCC(=O)O)NC(=O)[C@H](CCCNC(=N)N)NC(=O)[C@H](CC(C)C)NC(=O)[C@H](CCCNC(=N)N)NC(=O)[C@H](CO)NC(=O)[C@H](CC(C)C)NC(=O)[C@H](CCC(=O)O)NC(=O)[C@H](CO)NC(=O)[C@@H](NC(=O)[C@H](Cc1ccccc1)NC(=O)[C@@H](NC(=O)CNC(=O)[C@H](CC(=O)O)NC(=O)C(C)(C)NC(=O)[C@@H](N)Cc1c[nH]cn1)[C@@H](C)O)[C@@H](C)O)C(=O)N[C@@H](CC(C)C)C(=O)N[C@@H](CCC(N)=O)C(=O)NCC(=O)N[C@@H](CC(C)C)C(=O)N[C@H](C(=O)NCC(=O)N[C@@H](CCCCNC(=O)COCCOCCNC(=O)COCCOCCNC(=O)CC[C@H](NC(=O)CCCCCCCCCCCCCCCCC(=O)O)C(=O)O)C(N)=O)C(C)C,,indirect calorimetry,DIO C57BL/6J mice,"dose not given, from day 28, body weight as covariate, together with: GLP-1R agonist co-treatment",,energy expenditure,increased
COC1OC(C)C(O)C(OC2OC(C)C(O)C(OC3OC(C)C(O)C(OC4OC(C)C(O)C(OC5OC(C)C(O)C(OC6OC(C)C(O)C(OC7OC(C)C(O)C(OS(=O)(=O)O)C7OS(=O)(=O)O)C6OS(=O)(=O)O)C5OS(=O)(=O)O)C4OS(=O)(=O)O)C3OS(=O)(=O)O)C2OS(=O)(=O)O)C1OS(=O)(=O)O (stereo not drawn),,,human plasma,128 µg/mL,relative to: control,APTT prolongation,1.3 fold
CN1CCC(N[C@@H]2CCc3[nH]c4c(C(N)=O)ccc(-c5ccccc5Cl)c4c3C2)CC1,,"organoid viability, CellTiter-Glo 3D","sample E colorectal cancer organoid, human",6 days,,IC50,0.00834 µM
COC1OC(C)C(OS(=O)(=O)O)C(OC2OC(C)C(OS(=O)(=O)O)C(OC3OC(C)C(OS(=O)(=O)O)C(OS(=O)(=O)O)C3O)C2O)C1O (stereo not drawn),,,human plasma,128 µg/mL,relative to: control,APTT prolongation,1.4 fold
COc1cc(O)ccc1CCC(c1ccc(O)cc1)c1cc2c(c(C)c1O)OC(c1ccc(O)cc1)CC2 (mixture of isomers),,"measured: 5,15-diHETE",human whole blood,"3 µM, together with: Escherichia coli",,amount,67 ± 10 pg/mL blood
COC1OC(C)C(OS(=O)(=O)O)C(OC2OC(C)C(OS(=O)(=O)O)C(OC3OC(C)C(OS(=O)(=O)O)C(OC4OC(C)C(OS(=O)(=O)O)C(OC5OC(C)C(OS(=O)(=O)O)C(OC6OC(C)C(OS(=O)(=O)O)C(OC7OC(C)C(OS(=O)(=O)O)C(OC8OC(C)C(OS(=O)(=O)O)C(OC9OC(C)C(OS(=O)(=O)O)C(OC%10OC(C)C(OS(=O)(=O)O)C(OC%11OC(C)C(OS(=O)(=O)O)C(OS(=O)(=O)O)C%11O)C%10O)C9O)C8O)C7O)C6O)C5O)C4O)C3O)C2O)C1O (stereo not drawn),,,human plasma,128 µg/mL,relative to: control,APTT prolongation,1.4 fold
NC[C@@H](C(=O)Nc1ccc(-c2cn[nH]c2)cc1)c1ccccc1,,tonometry,"NZW rabbit, magnetic bead-induced ocular hypertension","ocular, 0.03%, 24 h",,IOP,35.2 mmHg
COc1ccc2c(c1)CN(C(=O)CCN1CCC(Cc3ccccc3)CC1)CCS2,,,paroxysmal AF patients,"oral, 540 mg, 2 h",,AF conversion rate,50%
COc1cc2c(NC3CCN(C(C)C)CC3)cc(N3CCOCC3)nc2cc1OCCCN1CCCC1,,"TMT proteomics, measured: ENO1","5xFAD mouse, hippocampus",dose not given,relative to: untreated 5xFAD,log2 fold change,0.0621
COCCOCCOCCNC(=O)Cc1cc(CC(=O)N[C@H]2C[C@H]3C(=O)Nc4cc(OCCOCCOCCOC)cc(n4)C(=O)N4CCC[C@H]4C(=O)Nc4cc(OCCOCCOCCOC)cc(n4)C(=O)N4CCC[C@H]4C(=O)Nc4cc(OCCOCCOCCOC)cc(n4)C(=O)N3C2)cc(CC(=O)N[C@H]2C[C@H]3C(=O)Nc4cc(OCCOCCOCCOC)cc(n4)C(=O)N4CCC[C@H]4C(=O)Nc4cc(OCCOCCOCCOC)cc(n4)C(=O)N4CCC[C@H]4C(=O)Nc4cc(OCCOCCOCCOC)cc(n4)C(=O)N3C2)c1,,"anion binding, ITC",water/acetonitrile 95 vol% (98.2 mol%),"298 K, together with: sodium iodide",,ΔG,-5.14 ± 0.0717 kcal/mol
COc1ccc(C(=O)CCc2cc(C(CCc3ccc(O)cc3OC)c3ccc(O)cc3)c(O)cc2OC)cc1 (racemic),,,human blood,"30 µM, together with: A23187",,arachidonic acid level,105000 ± 14700 pg/mL
CC(CCC(=O)NCc1ccc(C(=O)NO)cc1)C1CCC2C3C(O)CC4CC(O)CCC4(C)C3CCC12C (stereo not drawn),,measured: GCA,"PCK rat (Pkhd1 mutant), peripheral blood","oral gavage, dose not given, 5 months",relative to: total bile acids,relative abundance,11.3%
CC(=O)[O-].O.O.[O-]c1ccc(Br)cc1C=NCCN1CCOCC1.[Zn+2],,superoxide scavenging,,40 µM,,inhibition,6.31%
O=[N+]([O-])c1cc(Br)cc([N+](=O)[O-])c1NS(=O)(=O)c1ccc(Br)cc1,,"RNA-seq, measured: AT1G02520",Arabidopsis thaliana Col seedlings,dose not given,relative to: DMSO,log2 fold change,3.88
COC1OC(C)C(OC2OC(C)C(OS(=O)(=O)O)C(OS(=O)(=O)O)C2OS(=O)(=O)O)C(OS(=O)(=O)O)C1OS(=O)(=O)O (stereo not drawn),,,human plasma,128 µg/mL,relative to: control,APTT prolongation,1.4 fold
Oc1cc2c(cc1O)C(c1ccco1)NCC2 (stereo not drawn),,ferrozine,cell-free,"100 µM, DMSO solvent",,Fe2+ chelation,93.8 ± 1.07%
CC(=O)n1cc([C@H]2C=C(C(=O)N3CCN(Cc4ccc5c(c4)OCO5)CC3)O[C@@H](OCc3ccc(CO)cc3)C2)c2ccccc21,Trypanosoma cruzi,"reporter mRNA translation, inhibitor, measured: Renilla luciferase mRNA",cell-free extract,"concentration not given, test 2",relative to: positive over negative control,translation activity,56.7%
COC1OC(C)C(OC2OC(C)C(OS(=O)(=O)O)C(OC3OC(C)C(OC4OC(C)C(OS(=O)(=O)O)C(OS(=O)(=O)O)C4OS(=O)(=O)O)C(OS(=O)(=O)O)C3OS(=O)(=O)O)C2OS(=O)(=O)O)C(OS(=O)(=O)O)C1OS(=O)(=O)O (stereo not drawn),,,human plasma,128 µg/mL,relative to: control,APTT prolongation,1 fold
CCCCCc1ccc(S(=O)(=O)N2CC2C(=O)OC)cc1 (stereo not drawn),,,"mouse, Lewis lung carcinoma","intraperitoneal, 15 mg/kg, 16 doses, day 13",,tumour volume,400 mm3
O[C@@H](COc1ccc2cc(Br)ccc2c1)Cn1ccnc1,Trypanosoma cruzi,"reporter mRNA translation, inhibitor, measured: capped polyadenylated Renilla luciferase mRNA",cell-free extract,concentration not given,relative to: control RNA,relative translation,89.4%
COC1CN([C@H]2CC[C@H]([C@@]3(C)Oc4c(Cl)cc(C(=O)NCc5c(SC)cc(C)[nH]c5=O)c(C)c4O3)CC2)C1,,"RNA-seq, measured: mouse KIT homolog","mouse, HT-1376 xenograft, whole blood","dose not given, PRC2 target gene",relative to: vehicle,log2 fold change,1.94
CC(C)(C)COCCCCCN1C[C@H](O)[C@@H](O)[C@H](O)[C@@H]1CO,"Lysosomal acid glucosylceramidase (GBA1, Homo sapiens, UniProt P04062, R534H)","inhibitor, 4MU-β-D-glucopyranoside",,together with: 4MU-β-D-glucopyranoside,,IC50,100 µM
Cc1onc(-c2ccccc2)c1-c1ccc(S(=O)(=O)Cl)cc1,,HPLC-MS,,"pH 10.2, together with: 50 mM N-α-acetyl-lysine",,pseudo-first-order rate constant,3.6 h⁻¹
COc1ccc(S(=O)(=O)N2CCc3ccccc3C2)cc1N1CCN(C(=O)c2ccc(F)cc2C(F)(F)F)CC1,,CNN cell counting,"rat, 6-OHDA lesioned, substantia nigra pars compacta","0.3 µg/24 h, 12 weeks post lesion",relative to: lesioned over intact side,TH-immunoreactive cell count ratio,15.4 ± 1.9

# Some of these lines once more:
SMILES,target or system,test,test system,setting,how to read,measurement,result
O=C(N[C@@H](Cc1ccc(OCCCCC2CCNCC2)cc1)C(=O)O)c1nc2ccccc2o1.O=C(O)C(F)(F)F,,,"human, platelet-rich plasma","1.5 µM, together with: thrombin",,clot retraction velocity,0.00476 min⁻¹ and 0.0102 min⁻¹ and 0.00492 min⁻¹
CCCCCc1ccc(S(=O)(=O)N2CC2C(=O)OC)cc1 (stereo not drawn),,,"mouse, Lewis lung carcinoma","intraperitoneal, 15 mg/kg, 16 doses, day 13",,tumour volume,400 mm3
Cc1[nH]nc2c1N=C(c1ccccc1Cl)c1cnc(N3CCOCC3)cc1N2,,,mouse HCC1806 TNBC xenograft,"oral, 10 mg/kg once daily",,tumour growth inhibition,73.3%
CCCCCCCCCCCCCCCC(=O)OCC(CSC[C@H](N)C(=O)N[C@@H](CO)C(=O)N[C@@H](CCCCN)C(=O)N[C@@H](CCCCN)C(=O)N[C@@H](CCCCN)C(=O)N[C@@H](CCCCN)C(=O)NCCCCCC(=O)N[C@@H](CCCCN)C(=O)N[C@@H](CC(C)C)C(=O)N[C@H](C(=O)N[C@@H](Cc1ccccc1)C(=O)N[C@@H](Cc1ccccc1)C(=O)N[C@@H](Cc1ccc2ccccc2c1)C(=O)O)C(C)C)OC(=O)CCCCCCCCCCCCCCC (stereo partly drawn),,"OC antibody staining, measured: amyloid-beta oligomer","APP/PS1 transgenic mouse, cortex","intracortical injection, dose not given",,OC+ thioflavin S- area,1.06% and 3.92% and 2.81%
CC(=O)[O-].O.O.[O-]c1ccc(Br)cc1C=NCCN1CCOCC1.[Zn+2],,superoxide scavenging,,40 µM,,inhibition,6.31%
